Published values from different studies.
Each line is one published result; not all experiments were run side by side. Several values in a cell are separate wells, animals, samples, runs or records.

SMILES | cell line | test | setting | scale | viability
NC(=S)N/N=C/c1ccc(OCc2cccc(F)c2)cc1 | IMR-32 | MTT | 200 µg/mL, 24 h | relative to: untreated control | 57%
CNC(=O)C[C@H](Cc1ccncc1)NC(=O)[C@@H](Cc1cccc(Br)c1)NC(=O)[C@@H](N)Cc1ccsc1 | Huh-7-ACE2 | CellTiter-Glo | 0.0488 µM, 48 h, unit not given | relative to: DMSO | 0.947 and 0.997 and 0.862
Cc1ccc(OCCN(C)C)cc1C(=O)N[C@H](C)c1cc(-c2ccc(CNC3CCCC3)s2)nc2ccccc12 | Vero E6 |  | 250 µM |  | 7.31% and 1.83%
CNC(=O)C[C@H](Cc1ccncc1)NC(=O)[C@@H](Cc1cccc(Br)c1)NC(=O)[C@@H](N)Cc1cccc(F)c1 | Huh-7-ACE2 | CellTiter-Glo | 6.25 µM, 48 h, unit not given | relative to: DMSO | 0.871 and 1.06
CCn1ccc(-c2cc([C@@H](C)NC(=O)c3cc(OCCN(C)C)ccc3C)c3ccccc3n2)n1 | Vero E6 |  | 7.812 µM |  | 102% and 101% and 108%
CCCCCCCCCCCCCCCC(=O)OCC(CSC[C@H](N)C(=O)NCC(=O)N[C@@H](CC(=O)O)C(=O)N1CCC[C@H]1C(=O)N[C@@H](CCCCN)C(=O)N[C@@H](Cc1c[nH]cn1)C(=O)N1CCC[C@H]1C(=O)N[C@@H](CCCCN)C(=O)N[C@@H](CO)C(=O)N[C@@H](Cc1ccccc1)C(=O)O)OC(=O)CCCCCCCCCCCCCCC (stereo partly shown) | HFF-1 |  | 0.01 µg/mL, 48 h |  | 78%
Cc1ccc(N2CCN(C)C3(CC3)C2)cc1C(=O)N[C@H](C)c1cc(-c2cnn(C)c2)nc2ccccc12 | Vero E6 |  | 500 µM |  | 6.46% and 5.42% and 7.08%
CNC(=O)C[C@H](Cc1ccc(F)cc1)NC(=O)[C@@H](Cc1ccc(Cl)cc1Cl)NC(=O)[C@H](N)Cc1ccccc1[N+](=O)[O-] | Huh-7-ACE2 | CellTiter-Glo | 12.5 µM, 48 h, unit not given | relative to: DMSO | 0.812 and 0.883 and 1.01
CCCCCCCCCCCCCCCC(=O)N[C@@H](CSCC(COC(=O)CCCCCCCCCCCCCCC)OC(=O)CCCCCCCCCCCCCCC)C(=O)N[C@@H](CO)C(=O)N[C@@H](CCCCN)C(=O)N[C@@H](CCCCN)C(=O)N[C@@H](CCCCN)C(=O)N[C@@H](CCCCN)C(=O)O (stereo partly shown) | HFF-1 |  | 0.01 µg/mL, 48 h |  | 94.5%
Cc1ccc(OCCN(C)C)cc1C(=O)N[C@H](C)c1cc(-c2ccn(C)n2)nc2ccccc12 | Vero E6 |  | 3.906 µM |  | 92.6% and 96.6% and 96.2%
NC(=S)N/N=C/c1ccc(OCc2ccccc2)cc1 | IMR-32 | MTT | 500 µg/mL, 24 h | relative to: untreated control | 24%
CNC(=O)CC[C@H](Cc1ccccc1)NC(=O)[C@@H](Cc1ccc(Cl)cc1Cl)NC(=O)[C@H](N)Cc1ccccc1[N+](=O)[O-] | Huh-7-ACE2 | CellTiter-Glo | 0.391 µM, 48 h, unit not given | relative to: DMSO | 1.07 and 1.06 and 0.982
Cc1ccc(OCCN(C)C)cc1C(=O)N[C@H](C)c1cc(-c2scnc2C)nc2ccccc12 | Vero E6 |  | 15.62 µM |  | 97.4% and 94%
CNC(=O)CC1CN(C(=O)c2ccc(C(F)(F)F)cn2)CCN1C(=O)c1cccnn1 (stereo not shown) | Huh-7-ACE2 | CellTiter-Glo | 0.00153 µM, 48 h, unit not given | relative to: DMSO | 1.21 and 1.11 and 0.98
O=c1n(CCNCCOS(=O)(=O)c2ccccc2)c(=O)n(S(=O)(=O)c2ccccc2)c(=O)n1S(=O)(=O)c1ccccc1 | HUVEC | cell growth or viability, MTT | 25 µg/mL, 72 h |  | 23%
NC(=O)N/N=C/c1ccc(OCc2cccc(F)c2)cc1 | IMR-32 | MTT | 50 µg/mL, 24 h | relative to: untreated control | 91.5%

Repeated from above:
SMILES | cell line | test | setting | scale | viability
CNC(=O)C[C@H](Cc1ccc(F)cc1)NC(=O)[C@@H](Cc1ccc(Cl)cc1Cl)NC(=O)[C@H](N)Cc1ccccc1[N+](=O)[O-] | Huh-7-ACE2 | CellTiter-Glo | 12.5 µM, 48 h, unit not given | relative to: DMSO | 0.812 and 0.883 and 1.01
CCCCCCCCCCCCCCCC(=O)N[C@@H](CSCC(COC(=O)CCCCCCCCCCCCCCC)OC(=O)CCCCCCCCCCCCCCC)C(=O)N[C@@H](CO)C(=O)N[C@@H](CCCCN)C(=O)N[C@@H](CCCCN)C(=O)N[C@@H](CCCCN)C(=O)N[C@@H](CCCCN)C(=O)O (stereo partly shown) | HFF-1 |  | 0.01 µg/mL, 48 h |  | 94.5%
